Experimental data from different studies.
Compare with care: the assays were run in different laboratories. Values joined by “and” are separate records of one study, mostly repeats; a detail may differ. ± gives the spread as reported.

OC[C@H]1OC(O)[C@H]([18F])[C@@H](O)[C@@H]1O (stereo partly shown)  SUV (PET; Sprague-Dawley rat, olfactory bulb; intravenous, 2 h): 5.3
COc1ccc(CCC2CCCC(CCc3ccc(OC)cc3)N2C[C@@H](O)CO)cc1.Cl (stereo in doubt)  action potential amplitude change (rabbit Purkinje fibres; 0.3 µM, cycle length 1 s; relative to: baseline): -1 ± 4.4 mV
O=S(=O)(Nc1ccccc1)c1ccc(NC(=S)Nc2ccccc2)cc1  cholesterol level (male mouse, blood; oral, 20 mg/kg daily, 14 days): 206 mg/dL
CN1CC[C@@H](c2c(O)cc(O)c3c(=O)cc(-c4ccc(C(F)(F)F)cc4Cl)oc23)[C@@H]1CO  patients with adverse event (refers to: Hyperglycemia; relapsed AML; oral, 200 mg, grade 3-4, intermittent dosing): 0%
C[C@@H](NC(=O)N1C(=O)[C@H](Cc2ccnc(N)c2)[C@H]1C(=O)O)C1CCCCC1  incidence of diarrhea (healthy adult Chinese volunteers; continuous intravenous infusion, 0.3 mg/kg/h, 5-day infusion, CTCAE 5.0 grading): 0%
[Cl][212Pb][Cl]  tissue uptake (athymic mice, C4-2 xenograft, small intestine; intravenous, 2 h, 212Pb-labelled): 2.99 ± 0.47 %ID/g
CC[C@H](C)[C@H](NC(=O)[C@H](Cc1ccccc1)NC(=O)[C@H](CCC(=O)O)NC(=O)[C@H](CCCNC(=N)N)NC(=O)[C@H](C)NC(=O)[C@H](C)NC(=O)[C@H](CCC(N)=O)NC(=O)[C@H](CCC(=O)O)NC(=O)[C@H](CCC(=O)O)NC(=O)[C@H](CC(C)C)NC(=O)[C@H](Cc1ccc(O)cc1)NC(=O)[C@H](CO)NC(=O)[C@H](CO)NC(=O)[C@@H](NC(=O)[C@H](CC(=O)O)NC(=O)[C@H](CO)NC(=O)[C@@H](NC(=O)[C@H](Cc1ccccc1)NC(=O)[C@@H](NC(=O)CNC(=O)[C@H](CCC(=O)O)NC(=O)[C@H](C)NC(=O)CCc1cnc[nH]1)[C@@H](C)O)[C@@H](C)O)C(C)C)C(=O)N[C@@H](C)C(=O)N[C@@H](Cc1c[nH]c2ccccc12)C(=O)N[C@@H](CC(C)C)C(=O)N[C@H](C(=O)N[C@@H](CCCNC(=N)N)C(=O)NCC(=O)N[C@@H](CCCNC(=N)N)C(=O)N[C@@H](CCCCNC(=O)COCCOCCNC(=O)COCCOCCNC(=O)CC[C@H](NC(=O)CCCCCCCCCCCCCCCCC(=O)O)C(=O)O)C(=O)NCC(=O)NCC(=O)N[C@@H](CO)C(=O)N[C@@H](CCCCNC(=O)[C@H](CCCCNC(=O)[C@H](CCCCNc1c(NCCCCCN(O)C(=O)CCC(=O)NCCCCCN(O)C(=O)CCC(=O)NCCCCCN(O)C(C)=O)c(=O)c1=O)Nc1c(NCCCCCN(O)C(=O)CCC(=O)NCCCCCN(O)C(=O)CCC(=O)NCCCCCN(O)C(C)=O)c(=O)c1=O)NC(=O)[C@H](CCCCNc1c(NCCCCCN(O)C(=O)CCC(=O)NCCCCCN(O)C(=O)CCC(=O)NCCCCCN(O)C(C)=O)c(=O)c1=O)Nc1c(NCCCCCN(O)C(=O)CCC(=O)NCCCCCN(O)C(=O)CCC(=O)NCCCCCN(O)C(C)=O)c(=O)c1=O)C(=O)O)C(C)C [zirconium-89 labelled]  tissue uptake (ex vivo gamma counting; Sprague-Dawley rat, male, stomach; intravenous, 1 nmol, 24 h): 0.199 %ID/g and 0.232 %ID/g and 0.246 %ID/g and 0.226 %ID/g and 0.179 %ID/g
S=c1oc(-c2ccccc2)nn1CN1CCN(Cc2ccccc2)CC1  serum ALP (Wistar rat female; oral, 100 mg/kg, acute toxicity OECD 423): 11 ± 1.02 KA/dL
O=C1Nc2cc3[nH]nc(-c4ccncc4)c3cc2CN1Cc1ccccc1  patients with QTc prolongation (CTCAE v4.03; human, relapsed or refractory advanced solid tumours; intravenous, 7.2 mg/kg, pooled schedules): 0%
O=C1O[C@H]2[C@@H]3OC(=O)c4cc(O)c(O)c(O)c4-c4c(O)c(O)c5oc(=O)c6c(c(O)c(O)c7oc(=O)c4c5c76)-c4c(cc(O)c(O)c4O)C(=O)OC[C@H]3OC(O)[C@@H]2OC(=O)c2cc(O)c(O)c(O)c2-c2c1cc(O)c(O)c2O (mixture of isomers)  spleen weight (subacute oral toxicity; BALB/c mice; oral, 1000 mg/kg/day, 28 days): 0.079 g
C[C@@H]1OC(=O)NN=C1c1ccc(-c2ccc(F)cc2)c(C(F)(F)F)c1  patients with adverse event (phase I trial, refers to: abdominal distension all grades; human patients; 5 mg loading then 0.25 mg daily): 0%
C[C@]1(O)C[C@@](N)(c2ccc(-c3nc4n(c3-c3ccccc3)COc3ccncc3-4)cc2)C1  patients with Anemia TEAE (human, advanced or metastatic solid tumours; 20 mg once daily, phase I dose escalation): 50%
Oc1ccc(Cl)c(-c2cc(Cl)c(Cl)cc2Cl)c1Cl  enantiomeric fraction (enantioselective gas chromatography; racemized sample; column temperature 200 °C): 0.5
C=CC(=O)N1CC[C@H](n2nc(C#Cc3cc(OC)cc(OC)c3)c3c(N)ncnc32)C1  AST increased, any grade (human patients; oral, dose not given, QD regimen, adverse drug reaction, added: any phosphate binder): 20%
COc1cc2c(Oc3ccc4[nH]c(C)cc4c3F)ccnc2cc1OCC1(N)CC1  grade 1 or 2 sinus bradycardia (paediatric recurrent refractory sarcoma; 8 mg/kg): 6.7%
COc1cc(C(=O)NC2CCN(C)CC2)c(F)cc1Nc1ncc(C(F)(F)F)c(Oc2cccc3c2C(=O)N(C)C3)n1  fraction excreted in urine (0-48 h) (human patients, urine; oral, 100 mg single dose, geometric mean; relative to: dose): 8.45%
O=[N+]([O-])c1ccc2c(c1)S(=O)(=O)C=C2  Gr-1+ CD11b+ cells (flow cytometry; male C57BL/6 mice, spleen; i.p., 20 mg/kg, 8 days; relative to: CD45+ cells): 1.16%
Cn1cncc1-c1c(F)cncc1NC(=O)c1c(N)nn2cc(F)cnc12  grade ≥3 white blood cells decreased (human patients; oral, dose not given, all doses): 4%
CC(C)Nc1ccnc(Nc2cccc(-c3cccnc3)c2)n1  blood chemistry (refers to: total protein; mouse, blood; intraperitoneal, 5 mg/kg): 5.7 g/dL
C[C@@H]1NC(=O)[C@H](CCCCNC(=O)CO/N=C/C(=O)NCCCC[C@@H]2NC(=O)[C@@H](Cc3ccccc3)NC(=O)[C@H](CC(=O)O)NC(=O)CNC(=O)[C@H](CCCNC(=N)N)NC2=O)NC(=O)CNC(=O)[C@@H]2CCCN2C(=O)[C@H](CCCCNC(=O)CO/N=C/C(=O)NCCCC[C@@H]2NC(=O)[C@@H](Cc3ccccc3)NC(=O)[C@H](CC(=O)O)NC(=O)CNC(=O)[C@H](CCCNC(=N)N)NC2=O)NC(=O)[C@H](CCCCNC(=O)CCNC(=O)CCNC(=O)CCNC(=O)[C@H](CCCCN)NC(=O)[C@H](Cc2ccccc2)NC(=O)CNC(=O)CN2CCCNCCNCCCNCC2)NC(=O)[C@H](CCCCNC(=O)CO/N=C/C(=O)NCCCC[C@@H]2NC(=O)[C@@H](Cc3ccccc3)NC(=O)[C@H](CC(=O)O)NC(=O)CNC(=O)[C@H](CCCNC(=N)N)NC2=O)NC(=O)CNC(=O)[C@@H]2CCCN2C(=O)[C@H](CCCCNC(=O)CO/N=C/C(=O)NCCCC[C@@H]2NC(=O)[C@@H](Cc3ccccc3)NC(=O)[C@H](CC(=O)O)NC(=O)CNC(=O)[C@H](CCCNC(=N)N)NC2=O)NC1=O [copper-64 labelled]  tissue uptake (normal mice, pancreas; intravenous, 0.74 MBq, 3 h post-injection): 0.75 ± 0.05 %ID/g
CC(C)(C)c1cc(-n2nc3ccccc3n2)c(O)c(C(C)(C)C)c1  daily dermal uptake, percentile (exposure assessment; human, age 16-21 years; concentration not given, spray sunscreen, 95th percentile): 14.2 ng/kg body weight/day
CO[C@H]1C[C@@H]2CC[C@@H](C)[C@@](O)(O2)C(=O)C(=O)N2CCCC[C@H]2C(=O)O[C@H]([C@H](C)C[C@@H]2CC[C@@H](OC(=O)NCCOCCOCCOCCOCCOCCOCCOCCOCCC(=O)N3CCc4cc(Cn5nc(-c6ccc7oc(N)nc7c6)c6c(N)ncnc65)ccc4C3)[C@H](OC)C2)C[C@@H](O)[C@H](C)/C=C(\C)[C@@H](O)[C@@H](OC)C(=O)[C@H](C)C[C@H](C)/C=C/C=C/C=C/1C  incidence of Dysgeusia TEAE (patients with advanced solid tumours; intravenous, dose not given, any grade): 15.8%
CCN(CCO)CCCC(C)Nc1ccnc2cc(Cl)ccc12 (stereo not shown)  bilirubin increased patients (newly diagnosed glioblastoma patients; oral, 400 mg/dose, grade 1, added: radiotherapy plus temozolomide): 14%
CCCCCOc1ccc(-c2ccc(-c3ccc(C(=O)N[C@H]4C[C@@H](O)[C@@H](OCC[N+](C)(C)C)NC(=O)[C@@H]5[C@@H](O)[C@@H](C)CN5C(=O)[C@H]([C@@H](C)O)NC(=O)[C@H]([C@H](O)[C@@H](O)c5ccc(O)cc5)NC(=O)[C@@H]5C[C@@H](O)CN5C(=O)[C@H]([C@@H](C)O)NC4=O)cc3)cc2)cc1  aspartate aminotransferase (adult ICU patients, mITT, serum; dose not given, day 30): 23.3 U/L
CC(C)[C@@H]1NC(=O)CNC(=O)[C@H](CC(N)=O)NC(=O)[C@H](CCCNC(=N)N)NC(=O)[C@H](Cc2ccc(O)cc2)NC(=O)[C@H](C(C)C)NC(=O)[C@@H](NC(=O)[C@@H](NC(=O)[C@H](CC(N)=O)NC(=O)[C@H](Cc2c[nH]c3ccccc23)NC(=O)[C@H](C)NC(=O)[C@H](Cc2ccccc2)NC(=O)CN)C(C)C)CSSC[C@@H](C(=O)N[C@@H](Cc2cnc[nH]2)C(=O)N[C@@H](CCCNC(=N)N)C(=O)N[C@@H](CCCNC(=N)N)C(=O)N[C@@H](C)C(=O)N[C@@H](CC(N)=O)C(N)=O)NC(=O)[C@H](C(C)C)NC(=O)[C@H](CCCNC(=N)N)NC1=O  neutrophils (ICR mice, blood; intraductal mammary, 10 mg/kg, day 5): 18.2 ± 0.96%
O=C(Nc1ccccc1)C1CCN(C(=O)Oc2cccnc2)CC1  subjects with tremor (adverse event reporting; healthy women; oral, 20 mg): 0%
COc1ncccc1-c1cnn2ccc(N3CCN(C(=O)OC(C)C)CC3)nc12  drug concentration (mouse nerve ligation model, plasma; oral, 30 mg/kg, 120 min after last dose, repeat dosing day 3): 7.4 µM
CC(=O)c1c(C)c2cnc(Nc3ccc(C4CCN(CCS(C)(=O)=O)CC4)cn3)nc2n(C2CCCC2)c1=O  patients with any TEAE (HR+/HER2- advanced breast cancer patients; oral, dose not given, all grades, total): 100%
CN[C@H](CC(C)C)C(=O)N[C@H]1C(=O)N[C@@H](CC(N)=O)C(=O)N[C@H]2C(=O)N[C@H]3C(=O)N[C@H](C(=O)N[C@H](C(=O)O)c4cc(O)cc(O)c4-c4cc3ccc4O)[C@H](O)c3ccc(c(Cl)c3)Oc3cc2cc(c3O[C@@H]2O[C@H](CO)[C@@H](O)[C@H](O)[C@H]2O[C@H]2C[C@](C)(N)[C@H](O)[C@H](C)O2)Oc2ccc(cc2Cl)[C@H]1O  maximum tolerated dose (mouse; intravenous): 300 mg/kg
C[C@]1(CO)Cc2ncn(-c3ccc(C#N)c(Cl)c3)c2C(=O)O1  tmax (human, plasma; 40 mg single dose, median): 1.5 h
CCCSc1ccc2nc(NC(=O)OC)[nH]c2c1  red cell distribution width (SD) (mouse, blood; oral, 50 mg/kg): 27.7 fL
C=CC(=O)Nc1cc(Nc2nccc(Nc3cc(Cl)c(F)cc3C(C)(C)O)n2)c(OC)cc1N1CC[C@@H](N(C)C)C1  patients with dizziness (human patients; oral, 100 mg, treatment-emergent adverse events): 22.2%
O=c1ccc2ncc(=O)n3c2n1C[C@H]3CN1CCC(NCc2cc3c(cn2)OCCC3)CC1  AUC(0-48) (healthy human volunteers, urine; oral, dose not given, arithmetic mean, added: rifampicin): 1740 µg·h/mL
Cc1ccc(F)c2cc(C(=O)N[C@@H]3CCC[C@H](N4CC[C@H](N(C)S(C)(=O)=O)C4)C3)[nH]c12  CL/F (CD1 mouse; oral, 100 mg/kg): 87 mL/min/kg
CCC(C(=O)Nc1cc(NC2CCNCC2)ccc1C)n1cc(Cl)cc2nc(SCc3ccc(F)cc3)nc1-2 (stereo not shown)  intrinsic clearance (mouse, liver microsomes): 105 mL/min/g protein
Nc1ncnc2c1ncn2[C@@H]1O[C@@H]2COP(=O)([S-])O[C@@H]3[C@H](O)[C@@H](COP([O-])(=S)O[C@H]2[C@H]1O)O[C@H]3n1cnc2c(N)ncnc21.[Na+].[Na+] (stereo partly shown)  ALT (non-tumor-bearing mice, serum; intravenous, 1 mg/kg, toxicity study): 67.5 ± 12.4 U/L
[2H]C([2H])([18F])[C@]([2H])(N)C(=O)O  tissue uptake (PET; athymic nude mice, U-87 MG, tumor; dose not given, 15 min post-injection): 1.52 ± 0.08 %ID/cc

For quick reference, copied from above:
CCCCCOc1ccc(-c2ccc(-c3ccc(C(=O)N[C@H]4C[C@@H](O)[C@@H](OCC[N+](C)(C)C)NC(=O)[C@@H]5[C@@H](O)[C@@H](C)CN5C(=O)[C@H]([C@@H](C)O)NC(=O)[C@H]([C@H](O)[C@@H](O)c5ccc(O)cc5)NC(=O)[C@@H]5C[C@@H](O)CN5C(=O)[C@H]([C@@H](C)O)NC4=O)cc3)cc2)cc1  aspartate aminotransferase (adult ICU patients, mITT, serum; dose not given, day 30): 23.3 U/L
CC(C)[C@@H]1NC(=O)CNC(=O)[C@H](CC(N)=O)NC(=O)[C@H](CCCNC(=N)N)NC(=O)[C@H](Cc2ccc(O)cc2)NC(=O)[C@H](C(C)C)NC(=O)[C@@H](NC(=O)[C@@H](NC(=O)[C@H](CC(N)=O)NC(=O)[C@H](Cc2c[nH]c3ccccc23)NC(=O)[C@H](C)NC(=O)[C@H](Cc2ccccc2)NC(=O)CN)C(C)C)CSSC[C@@H](C(=O)N[C@@H](Cc2cnc[nH]2)C(=O)N[C@@H](CCCNC(=N)N)C(=O)N[C@@H](CCCNC(=N)N)C(=O)N[C@@H](C)C(=O)N[C@@H](CC(N)=O)C(N)=O)NC(=O)[C@H](C(C)C)NC(=O)[C@H](CCCNC(=N)N)NC1=O  neutrophils (ICR mice, blood; intraductal mammary, 10 mg/kg, day 5): 18.2 ± 0.96%
O=C(Nc1ccccc1)C1CCN(C(=O)Oc2cccnc2)CC1  subjects with tremor (adverse event reporting; healthy women; oral, 20 mg): 0%
COc1ncccc1-c1cnn2ccc(N3CCN(C(=O)OC(C)C)CC3)nc12  drug concentration (mouse nerve ligation model, plasma; oral, 30 mg/kg, 120 min after last dose, repeat dosing day 3): 7.4 µM
